# Measured values pooled from the literature.
# Each line is one published result; not all experiments were run side by side.
SMILES,assay,test system,conditions,how to read,quantity,value
Cc1cc(NC2CCN(C(=O)OC3CCN(C(=O)/C=C/CN(C)C)C3)CC2)n2ncc(C(C)C)c2n1 (stereo not shown),"Phase I dose escalation CTCAE v4.0, item: dermatitis acneiform",patients with advanced solid tumours,"dose not given, QD dosing grade 3 or higher",,patients with adverse event,0%
CCOc1c([C@H](C)n2nc(C)c3c(N)ncnc32)cc(Cl)c(F)c1[C@@H]1CNC(=O)C1,item: QTcF change ≤30 ms,previously treated B-cell malignancy,"oral, 5 mg once daily, overall population",relative to: baseline,patients,100%
FC(F)(F)c1ccc(CNc2ccc(Cc3c[nH]c4ncc(Cl)cc34)cn2)cn1,item: at least 1 adverse event,patients with TGCT,"oral, 1000 mg/day, all grades",,patients with treatment-related adverse event,100%
COc1cc2nccc(Oc3ccc(NC(=O)c4cc5c(n(-c6ccccc6)c4=O)CCCC5=O)nc3)c2cc1OC,,patients with relapsed/refractory AML,"oral, 3 mg once daily",,patients with TEAEs,100%
COc1ccc([C@@H](O)c2cc(-c3ncnc4cc(N5CCOCC5)ccc34)c(F)cc2Cl)nn1,item: general and administration site disorders,locally advanced rectal cancer patients,"250 mg, together with: capecitabine plus radiotherapy",,patients with drug-related AE,50%
C[C@@H](c1ccc2nccn2c1)n1nnc2ncc(-c3cnn(C)c3)nc21,item: Thrombocytopenia grade ≥3,EGFR-mutant MET-altered NSCLC,"oral, dose not given, study",,patients with treatment-related AEs,0%
CCO[C@H]1CCN(Cc2c(OC)cc(C)c3[nH]ccc23)[C@H](c2ccc(C(=O)O)cc2)C1,item: Pyrexia,"PNH patients, active haemolysis","oral, 200 mg twice daily, extension phase",,patients with adverse event,0%
Cc1cc(-c2nnc(N)nc2-c2ccc(F)cc2)cc(Cl)n1,item: myositis,post-IO NSCLC patients,"oral, 100 mg once daily, treatment-related, grade 2",,patients with immune-mediated AE,0%
C=CC(=O)Nc1cc(Nc2nccc(-c3cn(C)c4ccccc34)n2)c(OC)cc1N(C)CCN(C)C,item: treatment-related grade ≥3 Rash,EGFR-mutant MET-altered NSCLC,"oral, dose not given, all",,patients with adverse events,3%
CNC(=O)c1ccc(-c2cnc3ncc(Cc4ccc5ncccc5c4)n3n2)cc1F,item: Headache,other cancer patients,"oral, 600 mg twice daily, expansion cohort, grade 3-4",,patients with adverse event,0%
C=CC(=O)NC1CCN(c2ncc3ncnc(Nc4ccc(Oc5ccc6c(c5)ncn6C)c(C)c4)c3n2)CC1,,male patients,"oral, dose not given, on-treatment adverse events",,patients with Constipation,0%
O=C(Nc1nc2cccc(-c3ccc(CN4CCS(=O)(=O)CC4)cc3)n2n1)C1CC1,,rheumatoid arthritis patients,"oral, 100 mg twice daily, 4 weeks, TEAE regardless of relatedness",,patients with Gastritis,0%
CC(C)C[C@H](NC(=O)CNC(=O)c1cc(Cl)ccc1Cl)B(O)O,"item: Pneumonia, all grades",newly diagnosed multiple myeloma patients,"oral, dose not given, maintenance phase, new onset, cycle 17 or later",,patients with adverse event,0%
C[C@@H](Nc1cc(F)cc(F)c1)c1cc(C(=O)N(C)C)cc2c(=O)cc(N3CCOCC3)oc12,item: Rash,advanced solid tumour patients,"oral, dose not given, dose finding",,patients discontinuing for AE,3.2%
NC(=O)N1c2ccccc2C=Cc2ccccc21,,male patients,"oral, dose not given, on-treatment adverse events",,patients with abdominal discomfort,7%
COc1cc(Nc2ncc3c(n2)-c2ccc(Cl)cc2C(c2c(F)cccc2OC)=NC3)ccc1C(=O)O,,cancer patients,"oral, dose not given, grade 1 any attribution, together with: pembrolizumab",,patients with increased LDH,25%

# For quick reference, copied from above:
SMILES,assay,test system,conditions,how to read,quantity,value
Cc1cc(NC2CCN(C(=O)OC3CCN(C(=O)/C=C/CN(C)C)C3)CC2)n2ncc(C(C)C)c2n1 (stereo not shown),"Phase I dose escalation CTCAE v4.0, item: dermatitis acneiform",patients with advanced solid tumours,"dose not given, QD dosing grade 3 or higher",,patients with adverse event,0%
CCOc1c([C@H](C)n2nc(C)c3c(N)ncnc32)cc(Cl)c(F)c1[C@@H]1CNC(=O)C1,item: QTcF change ≤30 ms,previously treated B-cell malignancy,"oral, 5 mg once daily, overall population",relative to: baseline,patients,100%
